Measured values collected from several papers.
Parts stem from different laboratories: compare values within a part only.
Sequence of UniProt O43683 (whole entry, looked up): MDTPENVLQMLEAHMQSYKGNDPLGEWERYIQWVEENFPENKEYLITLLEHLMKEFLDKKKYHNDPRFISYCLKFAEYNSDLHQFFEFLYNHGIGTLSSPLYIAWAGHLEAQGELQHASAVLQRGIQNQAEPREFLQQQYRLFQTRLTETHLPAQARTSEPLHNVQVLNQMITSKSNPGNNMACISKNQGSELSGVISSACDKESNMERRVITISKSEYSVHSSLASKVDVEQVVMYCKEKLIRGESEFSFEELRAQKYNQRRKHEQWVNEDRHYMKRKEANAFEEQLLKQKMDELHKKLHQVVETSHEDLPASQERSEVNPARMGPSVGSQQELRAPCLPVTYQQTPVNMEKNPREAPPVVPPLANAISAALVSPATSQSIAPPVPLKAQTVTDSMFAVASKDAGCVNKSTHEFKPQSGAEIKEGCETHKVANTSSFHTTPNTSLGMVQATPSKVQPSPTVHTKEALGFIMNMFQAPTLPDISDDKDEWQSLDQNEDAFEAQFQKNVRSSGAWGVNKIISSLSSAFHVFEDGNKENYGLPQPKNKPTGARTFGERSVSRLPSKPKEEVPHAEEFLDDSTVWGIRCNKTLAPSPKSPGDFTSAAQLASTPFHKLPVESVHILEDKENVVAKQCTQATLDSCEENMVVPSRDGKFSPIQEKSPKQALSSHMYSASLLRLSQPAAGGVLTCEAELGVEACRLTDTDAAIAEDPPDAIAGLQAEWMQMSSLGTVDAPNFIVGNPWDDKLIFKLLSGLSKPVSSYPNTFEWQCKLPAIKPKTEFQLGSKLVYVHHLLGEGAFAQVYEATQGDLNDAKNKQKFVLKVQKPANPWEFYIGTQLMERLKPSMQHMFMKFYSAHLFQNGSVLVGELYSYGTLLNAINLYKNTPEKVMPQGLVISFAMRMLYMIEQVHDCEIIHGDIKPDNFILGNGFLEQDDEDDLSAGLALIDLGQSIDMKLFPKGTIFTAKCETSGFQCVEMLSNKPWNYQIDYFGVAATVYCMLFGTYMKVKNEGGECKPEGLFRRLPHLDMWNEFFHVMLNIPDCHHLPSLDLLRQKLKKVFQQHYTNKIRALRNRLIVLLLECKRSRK
Sequence of UniProt Q06418 (whole entry, looked up): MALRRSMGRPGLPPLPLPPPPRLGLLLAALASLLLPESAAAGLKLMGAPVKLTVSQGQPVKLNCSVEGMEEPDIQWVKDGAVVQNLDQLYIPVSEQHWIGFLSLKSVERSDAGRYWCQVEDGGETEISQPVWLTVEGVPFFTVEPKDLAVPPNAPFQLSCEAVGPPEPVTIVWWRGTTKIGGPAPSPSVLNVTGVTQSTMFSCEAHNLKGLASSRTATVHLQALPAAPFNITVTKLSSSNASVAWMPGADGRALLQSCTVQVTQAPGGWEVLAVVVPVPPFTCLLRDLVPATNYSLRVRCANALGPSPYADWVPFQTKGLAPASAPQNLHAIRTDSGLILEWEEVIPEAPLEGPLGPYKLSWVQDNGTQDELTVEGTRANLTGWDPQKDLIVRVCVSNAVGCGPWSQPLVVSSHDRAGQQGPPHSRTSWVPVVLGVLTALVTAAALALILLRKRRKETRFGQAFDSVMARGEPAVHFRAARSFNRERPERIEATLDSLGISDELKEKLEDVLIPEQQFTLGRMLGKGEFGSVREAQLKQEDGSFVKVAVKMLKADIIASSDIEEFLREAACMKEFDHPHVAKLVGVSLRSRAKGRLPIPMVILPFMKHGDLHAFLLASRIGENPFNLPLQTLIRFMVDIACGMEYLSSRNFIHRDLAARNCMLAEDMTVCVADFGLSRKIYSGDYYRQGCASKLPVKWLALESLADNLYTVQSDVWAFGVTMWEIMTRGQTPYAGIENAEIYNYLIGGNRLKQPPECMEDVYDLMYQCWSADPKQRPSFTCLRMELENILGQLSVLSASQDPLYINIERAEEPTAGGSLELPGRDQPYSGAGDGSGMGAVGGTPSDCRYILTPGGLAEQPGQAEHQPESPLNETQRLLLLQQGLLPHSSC
Sequence of UniProt P42336 (whole entry, unmodified, looked up): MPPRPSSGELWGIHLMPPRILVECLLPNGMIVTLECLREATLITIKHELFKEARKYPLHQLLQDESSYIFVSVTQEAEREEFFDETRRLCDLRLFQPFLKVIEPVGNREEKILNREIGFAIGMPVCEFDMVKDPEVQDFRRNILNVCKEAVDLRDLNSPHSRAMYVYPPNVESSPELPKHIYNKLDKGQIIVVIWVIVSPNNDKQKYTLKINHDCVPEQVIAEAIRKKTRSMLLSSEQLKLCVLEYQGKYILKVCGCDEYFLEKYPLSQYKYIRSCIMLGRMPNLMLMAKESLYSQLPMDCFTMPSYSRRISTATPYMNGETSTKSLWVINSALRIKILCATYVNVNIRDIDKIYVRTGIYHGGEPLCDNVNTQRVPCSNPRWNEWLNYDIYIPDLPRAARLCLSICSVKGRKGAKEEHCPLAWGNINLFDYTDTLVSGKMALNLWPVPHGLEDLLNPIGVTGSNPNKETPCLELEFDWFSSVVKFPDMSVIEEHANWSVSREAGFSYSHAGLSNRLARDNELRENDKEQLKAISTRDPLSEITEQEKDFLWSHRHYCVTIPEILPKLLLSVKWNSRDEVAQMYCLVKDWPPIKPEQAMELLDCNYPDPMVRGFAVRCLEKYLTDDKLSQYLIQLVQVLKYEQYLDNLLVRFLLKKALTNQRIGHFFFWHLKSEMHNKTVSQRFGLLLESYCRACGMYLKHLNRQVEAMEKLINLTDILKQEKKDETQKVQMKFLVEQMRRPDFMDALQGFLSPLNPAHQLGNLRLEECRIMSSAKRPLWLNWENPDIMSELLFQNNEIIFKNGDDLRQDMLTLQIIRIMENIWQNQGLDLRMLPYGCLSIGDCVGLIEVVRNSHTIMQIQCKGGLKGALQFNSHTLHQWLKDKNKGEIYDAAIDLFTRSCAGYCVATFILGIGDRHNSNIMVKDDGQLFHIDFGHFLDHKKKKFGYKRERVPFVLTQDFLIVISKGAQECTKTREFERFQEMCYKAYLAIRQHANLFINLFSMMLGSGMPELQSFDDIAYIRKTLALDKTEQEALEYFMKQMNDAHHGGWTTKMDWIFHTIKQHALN
Sequence of UniProt P53667 (whole entry, looked up): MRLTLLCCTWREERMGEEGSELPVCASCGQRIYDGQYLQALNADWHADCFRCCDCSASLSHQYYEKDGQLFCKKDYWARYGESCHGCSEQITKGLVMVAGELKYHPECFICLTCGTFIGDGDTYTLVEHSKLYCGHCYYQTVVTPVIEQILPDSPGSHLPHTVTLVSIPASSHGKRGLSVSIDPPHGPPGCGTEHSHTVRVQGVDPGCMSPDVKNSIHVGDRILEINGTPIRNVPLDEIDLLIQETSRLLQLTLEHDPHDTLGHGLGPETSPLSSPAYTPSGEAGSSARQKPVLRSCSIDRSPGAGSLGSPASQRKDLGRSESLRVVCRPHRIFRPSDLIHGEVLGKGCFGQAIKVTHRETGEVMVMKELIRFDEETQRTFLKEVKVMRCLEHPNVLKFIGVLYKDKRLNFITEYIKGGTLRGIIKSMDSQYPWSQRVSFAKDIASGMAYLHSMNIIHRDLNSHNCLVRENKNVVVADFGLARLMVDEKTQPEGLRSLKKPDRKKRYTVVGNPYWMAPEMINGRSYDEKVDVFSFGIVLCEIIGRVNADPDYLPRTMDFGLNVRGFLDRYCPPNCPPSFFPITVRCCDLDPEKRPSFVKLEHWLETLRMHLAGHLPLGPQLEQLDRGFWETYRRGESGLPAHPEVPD
Sequence of UniProt Q9UIK4 (whole entry, looked up): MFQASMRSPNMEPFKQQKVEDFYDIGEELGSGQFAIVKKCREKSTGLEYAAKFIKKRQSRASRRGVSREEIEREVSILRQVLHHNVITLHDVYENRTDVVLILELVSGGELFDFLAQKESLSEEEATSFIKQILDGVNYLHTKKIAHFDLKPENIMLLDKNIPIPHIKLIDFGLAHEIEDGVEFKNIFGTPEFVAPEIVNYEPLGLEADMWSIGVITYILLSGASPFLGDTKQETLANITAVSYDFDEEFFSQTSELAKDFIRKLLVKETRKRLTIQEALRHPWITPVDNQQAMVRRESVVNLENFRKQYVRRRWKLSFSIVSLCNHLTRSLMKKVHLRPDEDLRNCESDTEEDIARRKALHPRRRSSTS

Study 1 — species: human; sample: microsomes or S9; concentration: 2 µM; time: 0.5 h
SMILES	remaining compound [%]
CCc1ncc(CN(C)c2ccc(-n3ccc(C)n3)nn2)s1	35.6
COCCCNC(=O)C1CCC(CN(Cc2c(Cl)cccc2Cl)S(=O)(=O)c2ccc(Br)cc2)CC1 (stereo not shown)	0
COc1ccc(Br)c2[nH]c(=O)cc(CCO)c12	74.1
COc1ccc(-c2n[nH]cc2CN(Cc2ccncc2)C2CC(C)(C)NC(C)(C)C2)cc1	74
c1ccc(COc2ccccc2-c2cscn2)cc1	3.92
CC(/C=C1\S/C(=N/c2ccc(O)cc2)N=C1O)=C\c1ccccc1	80.8
c1ccc(-c2cc3cc(-c4ccccc4)[nH]c3cn2)cc1	49
c1ccc(-c2noc(Cc3cn4ccccc4n3)n2)nc1	94.9
COc1cc(O)ccc1-c1nnc(C)n1-c1ccc(O)cc1	63.1
CCOc1ccccc1NC(=O)c1cc2sccc2n1C	0.137
Cc1ccc(NC(=O)N2Cc3c(sc4c3CCCC4)-n3cccc3C2c2cccs2)cc1Cl (stereo not shown)	34.9
CCC(=O)c1ccc(CCCCCC(=O)O)s1	19.5
COc1ccc(CN2C(=O)N[C@@H](CC(=O)Nc3nc(C(C)(C)C)cs3)C2=O)cc1OC	4.37
Cc1nnc2c(N3CCN(C(=O)c4n[nH]c5c4CCCC5)CC3)nccn12	0
Clc1ccc(Nc2ccc(-n3ccnc3)nn2)cc1	67.5
CNC(=O)c1cc(Br)nn1-c1ncccc1Cl	> 100
CCOC1CC(N(C)C(=O)Nc2c(C)noc2C)C12CCCC2 (stereo not shown)	8.45
CC(Cn1cc(Br)cn1)c1nc2c3cnn(C)c3ncn2n1 (stereo not shown)	76.7
Cc1cc(C)c(S(=O)(=O)N2CCN(c3cc(C)nc(N4CCCC4)n3)CC2)c(C)c1	0.0567

Study 2 — method: competition with immobilised ligand; concentration: 1 µM
Compound: N#Cc1ccc(Nc2ccc3[nH]c(=O)[nH]c3c2)c(Cl)c1
target	test	remaining binding [%]
DAPK2 (Homo sapiens, UniProt Q9UIK4)	cell-free assay	92
BUB1 (Homo sapiens, UniProt O43683)	cell-free assay	100
SYK (Homo sapiens, UniProt P43405)	cell-free assay	100
MAPK4 (Homo sapiens, UniProt P31152)	cell-free assay	100
TEC (Homo sapiens, UniProt P42680)	binding	96
PIP5K1A (Homo sapiens, UniProt Q99755)	cell-free assay	100
PI4KB (Homo sapiens, UniProt Q9UBF8)	cell-free assay	100
TYRO3 (Homo sapiens, UniProt Q06418)	cell-free assay	62
Tyrosine-protein kinase ABL1, non-phosphorylated (ABL1, Homo sapiens, UniProt P00519, T315I)	cell-free assay	90
MAP4K3 (Homo sapiens, UniProt Q8IVH8)	cell-free assay	88
EPHB6 (Homo sapiens, UniProt O15197)	cell-free assay	100
Ribosomal protein S6 kinase alpha-5, C-terminal kinase domain (RPS6KA5, Homo sapiens, UniProt O75582)	cell-free assay	100
CDKL3 (Homo sapiens, UniProt Q8IVW4)	binding	80
BMPR1A (Homo sapiens, UniProt P36894)	binding	100
PIK3CA (Homo sapiens, UniProt P42336, E545K)	cell-free assay	79
LIM domain kinase 1 (LIMK1, Homo sapiens, UniProt P53667)	cell-free assay	100
BRAF (Homo sapiens, UniProt P15056, V600E)	cell-free assay	100

Study 3 — observed: enzyme activity; action: inhibitor; concentration: 0.5 µM; reference: control
Target: Serine/threonine-protein kinase TAO1 (TAOK1, Homo sapiens, UniProt Q7L7X3)
Sequence of UniProt Q7L7X3 (whole entry, looked up): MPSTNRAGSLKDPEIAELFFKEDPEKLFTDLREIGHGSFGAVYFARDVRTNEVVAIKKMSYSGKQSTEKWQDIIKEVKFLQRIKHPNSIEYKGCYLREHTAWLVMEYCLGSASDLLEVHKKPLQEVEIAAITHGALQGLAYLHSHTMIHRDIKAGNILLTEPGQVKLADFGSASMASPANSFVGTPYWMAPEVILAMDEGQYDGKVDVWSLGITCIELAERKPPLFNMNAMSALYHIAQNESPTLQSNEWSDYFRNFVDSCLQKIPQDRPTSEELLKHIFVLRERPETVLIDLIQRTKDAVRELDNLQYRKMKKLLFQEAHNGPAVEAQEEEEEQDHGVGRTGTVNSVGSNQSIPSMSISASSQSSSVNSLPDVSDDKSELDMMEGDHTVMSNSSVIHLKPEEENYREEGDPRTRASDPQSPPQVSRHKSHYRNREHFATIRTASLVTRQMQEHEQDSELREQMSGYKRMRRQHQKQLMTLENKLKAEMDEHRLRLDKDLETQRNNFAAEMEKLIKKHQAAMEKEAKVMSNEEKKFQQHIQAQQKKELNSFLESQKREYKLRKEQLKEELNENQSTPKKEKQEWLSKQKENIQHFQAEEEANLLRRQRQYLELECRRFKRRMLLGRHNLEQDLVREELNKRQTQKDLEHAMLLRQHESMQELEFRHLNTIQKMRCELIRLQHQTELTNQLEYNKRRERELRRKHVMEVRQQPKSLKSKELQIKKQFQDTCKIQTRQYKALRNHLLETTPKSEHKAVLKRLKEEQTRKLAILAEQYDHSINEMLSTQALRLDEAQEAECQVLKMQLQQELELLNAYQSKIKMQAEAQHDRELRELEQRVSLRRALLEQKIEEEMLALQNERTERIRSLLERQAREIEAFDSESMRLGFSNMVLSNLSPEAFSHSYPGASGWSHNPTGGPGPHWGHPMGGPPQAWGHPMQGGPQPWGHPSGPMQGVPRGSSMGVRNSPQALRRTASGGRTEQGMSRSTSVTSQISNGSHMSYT
Structure (SMILES)	remaining activity [%]
N#CC(=C(N)Sc1ccc(N)cc1)c1ccccc1C(F)(F)F	98.3
O=C1NC(=O)C(c2c[nH]c3ccccc23)=C1c1c[nH]c2ccccc12	93.7
Nc1nc(Nc2ccc(S(N)(=O)=O)cc2)nn1C(=O)c1c(F)cccc1F	18.8
Cc1ccc(NC2=CC(=O)c3sc(C)nc3C2=O)cc1	99.8
Nc1ncnc2c1cnn2-c1ccccc1	89.5
COc1ccc(S(=O)(=O)N(CCO)c2ccccc2CN(C)CC=Cc2ccc(Cl)cc2)cc1	103
COc1cc(Nc2c(C#N)cnc3cc(OCCCN4CCN(C)CC4)c(OC)cc23)c(Cl)cc1Cl	52.8
CC(C)(C)n1nc(Cc2cccc3ccccc23)c2c(N)ncnc21	86.4
CC(=O)c1ccc(N2CCOCC2)cc1O	99.4
Cc1cc(Nc2nc(-c3ccccc3)nc3ccccc23)n[nH]1	115
NC(=O)c1ccc(N(C(N)=O)c2c(F)cccc2F)nc1-c1ccc(F)cc1F	96.2
CSc1nc(-c2ccnc(N[C@@H](C)c3ccccc3)c2)c(-c2ccc(F)cc2)[nH]1 (racemic)	79.9
CC[n+]1c(/C=C/N(C)c2ccccc2)n(-c2ccccc2)c2ccc(-c3nc4ccccc4s3)cc21	99.4
Fc1ccc(-c2nc3n(c2-c2ccncc2)CCS3)cc1	97.7
Cc1cncc2cccc(S(=O)(=O)N3CCCN(C(=O)CN)C[C@@H]3C)c12	84.2
CCc1[nH]c(-c2ccc(OC)cc2)nc1-c1ccncc1	104
Oc1ccc(Nc2nc(-c3ccc(Cl)cc3)cs2)cc1	97.1
O=S(=O)(NCCNC/C=C/c1ccc(Br)cc1)c1cccc2cnccc12	101
CC#CC(=O)Nc1cc2c(Nc3ccc(F)c(Cl)c3)ncnc2cn1	104
CCCC(=O)Oc1ccc2[nH]c(C(=O)c3cc4ccccc4[nH]3)cc2c1	82.8
O=C1Cc2c([nH]c3ccc([N+](=O)[O-])cc23)-c2ccccc2N1	66.9
Nc1nccc(-c2c(-c3ccc(F)cc3)ncn2C2CCNCC2)n1	92.7

Study 4 — cell line: HaCaT; concentration: 100 µM; time: 36 h
SMILES	viability [%]
O=C(OCc1ccccc1)c1ccccc1	65.7
CCN(CC)CCNC(=O)c1cc(S(C)(=O)=O)ccc1OC	89.2
NC[C@@H]1O[C@H](O[C@H]2[C@@H](O)[C@H](O[C@@H]3[C@@H](O)[C@H](N)C[C@H](N)[C@H]3O[C@H]3O[C@H](CO)[C@@H](O)[C@H](O)[C@H]3N)O[C@@H]2CO)[C@H](N)[C@@H](O)[C@@H]1O	86.3
CCCCC(=O)O[C@]1(C(=O)CO)CC[C@H]2[C@@H]3CCC4=CC(=O)CC[C@]4(C)[C@H]3[C@@H](O)C[C@@]21C	52.8
C[C@@H](Oc1cc(-c2cnn(C3CCNCC3)c2)cnc1N)c1c(Cl)ccc(F)c1Cl	5.11
O=C1c2c(O)ccc(O)c2C(=O)c2c(NCCNCCO)ccc(NCCNCCO)c21	-1.31
CC(C)(S)C(N)C(=O)O (racemic)	82
Cc1noc(NS(=O)(=O)c2ccc(N)cc2)c1C	58.9
CC(=O)N1CCN(c2ccc(OC[C@@H]3CO[C@@](Cn4ccnc4)(c4ccc(Cl)cc4Cl)O3)cc2)CC1 (racemic)	4.36
COc1cc2nc(N3CCN(C(=O)C4COc5ccccc5O4)CC3)nc(N)c2cc1OC (stereo not shown)	5.73
CC[C@H](C)C(=O)O[C@H]1C[C@H](O)C=C2C=C[C@H](C)[C@H](CC[C@@H](O)C[C@@H](O)CC(=O)O)[C@H]21	99.2
CCn1cc(C(=O)O)c(=O)c2cc3c(cc21)OCO3	96.8
C[C@H](CCC(=O)O)[C@H]1CC[C@H]2[C@@H]3C(=O)C[C@@H]4CC(=O)CC[C@]4(C)[C@H]3CC(=O)[C@]12C	82.6
N#Cc1ccc(C(c2ccc(C#N)cc2)n2cncn2)cc1	87.4
COc1c(C)c2c(c(O)c1C/C=C(\C)CCC(=O)O)C(=O)OC2	63.8
CC(C)C(=O)c1c(C(C)C)nn2ccccc12	74
NC(=O)N1c2ccccc2C=Cc2ccccc21	89.9
CCCCOc1ccc(OCCCN2CCOCC2)cc1	54.8
O=C(Nc1ccc([N+](=O)[O-])cc1Cl)c1cc(Cl)ccc1O	10.1
COC(=O)C1=C(C)NC(C)=C(C(=O)OC(C)C)C1c1cccc2nonc12 (stereo not shown)	39.9
CC(=O)Nc1ccc(O)cc1	76.7
